Measured values from different studies.
± gives the spread as reported. In brackets after ≈: the same amount, converted by molar mass.

CN1CCCNC(=O)c2cccc(c2)C(=O)NCCCN(C)CCCNc2cccc3c2C(=O)c2cccc(c2C3=O)NCCC1
log2 fold change (SAS; RNA-Seq, item: BTK mRNA; 1 µM, 6 h; baseline: untreated cells): 4.66

O=C(N/N=C/c1ccc2c(ccc[n+]2Cc2ccccc2)c1)C(=O)N/N=C/c1ccc2c(ccc[n+]2Cc2ccccc2)c1
ΔTm (telomeric G4 DNA hybrid-2; FRET melting; 1 µM, DNA 0.2 µM, added: duplex DNA competitor 10 µM): 8 ± 0.7 °C

C=CC(=O)N1[C@@H](c2ccc3c(c2)OCO3)c2[nH]c3ccccc3c2C[C@H]1C(=O)N1CCN(C)CC1
relative co-enrichment (human cyclin E1 N112C-3xFLAG:CDK2; co-IP with TMT proteomics, item: HSPA8; concentration not given, P11142; baseline: wild type DMSO): 102%

CC(C)(C)c1cc(-c2ccc3cccnc3n2)nc(-c2ccc3cccnc3n2)c1.[Cl-].[Cl-].[Ru+2].c1ccc2cc3nc4c5cccnc5c5ncccc5c4nc3cc2c1
EC50 (B16-F10; resazurin; added: light 733 nm, 9 mW, 100 J/cm2): 5.09 µM

C=C(NC(=O)c1csc(-c2nc3c(cc2O)-c2nc(cs2)C(=O)NC(C(C)O)C(=O)NC(=C(C)OC)c2nc(cs2)C(=O)NC2c4nc(cs4)C(=O)NC(COC(=O)c4c5c6c(cccc6n4O)COC(=O)C(OC4CC(C)(O)C(N(C)C)C(C)O4)C2OC5)c2nc-3cs2)n1)C(N)=O (stereo not shown)
bacterial load (Streptococcus pneumoniae; -4, immunocompromised mice, lung infection, lung; 2 mg/kg/day three times daily, 24 h post-dose): 4.15 log CFU/g

Cc1ncsc1-c1ccc(C(C)NC(=O)C2CC(O)CN2C(=O)C(NC(=O)CCCCCCCCCCN2CCCC(Nc3ncc(Cl)c(Nc4ccccc4S(=O)(=O)C(C)C)n3)C2)C(C)(C)C)cc1 (stereo not shown)
log2 fold change (22Rv1; RNA-seq, item: MED13 mRNA; concentration not given; baseline: DMSO): -1.06

O=C(N/N=C/c1ccc2c(ccc[n+]2Cc2ccccc2)c1)c1ccc2ccc3ccc(C(=O)N/N=C/c4ccc5c(ccc[n+]5Cc5ccccc5)c4)nc3c2n1
ΔTm (telomeric G4 DNA hybrid-2; FRET melting; 1 µM, DNA 0.2 µM, added: duplex DNA competitor 10 µM): 27.2 ± 5.1 °C

CNS(=O)(=O)Nc1nccc(Cc2c(C)c3ccc(Oc4ncccc4F)cc3oc2=O)c1F
IC50 (COV504; cell viability; 7 days): > 1 µM

CC[n+]1cccc2cc(/C=N/NC(=O)c3cncc(C(=O)N/N=C/c4ccc5c(ccc[n+]5CC)c4)n3)ccc21
ΔTm (telomeric G4 DNA hybrid-2; FRET melting; 1 µM, DNA 0.2 µM): 20.3 ± 0.7 °C

Nc1ncc(-c2cc(-c3cnn(CC(F)(F)F)c3)ncc2F)nc1C(=O)NC1CNCC(F)C1 (stereo not shown)
remaining binding (MEK5; KINOMEscan; 1 µM; baseline: DMSO control): 15%

N=C(N)NCCC[C@@H]1NC(=O)[C@H](CCCNC(=N)N)NC(=O)[C@@H](CCCNC(=N)N)NC(=O)[C@@H](CCCNC(=N)N)NC(=O)[C@@H](C(c2ccccc2)c2ccccc2)NC(=O)[C@@H](Cc2c[nH]c3ccccc23)NC(=O)[C@@H](C(c2ccccc2)c2ccccc2)NC1=O
MIC (Blastomyces dermatitidis; BD-1): 2 µg/mL (≈ 1.59 µM)

COC1CN([C@H]2CC[C@H]([C@@]3(C)Oc4c(Cl)cc(C(=O)NCc5c(SC)cc(C)[nH]c5=O)c(C)c4O3)CC2)C1
log2 fold change (RNA-seq, item: LPAR1; human, whole blood; dose not given, 24 h; baseline: pretreatment baseline): 1.85

O=C(N/N=C/c1ccc2c(ccc[n+]2Cc2ccccc2)c1)c1cccc(C(=O)N/N=C/c2ccc3c(ccc[n+]3Cc3ccccc3)c2)n1
ΔTm (telomeric G4 DNA hybrid-2; FRET melting; 1 µM, DNA 0.2 µM, added: duplex DNA competitor 10 µM): 21.5 ± 1 °C

C=CC(=O)Nc1cccc(Cn2ncc3cnc(Nc4cnn(CCOC)c4)nc32)c1
percent of control (WNK3 human; binding, KINOMEscan; 100 nM; lower = stronger binding): 96%

C[n+]1cccc2cc(/C=N/NC(=O)C(=O)N/N=C/c3ccc4c(ccc[n+]4C)c3)ccc21
ΔTm (telomeric G4 DNA hybrid-2; FRET melting; 1 µM, DNA 0.2 µM, added: duplex DNA competitor 10 µM): 2.3 ± 0.4 °C

CC(=O)[O-].O.O.[O-]c1ccc(Br)cc1C=NCCN1CCOCC1.[Zn+2]
ferric reducing power (FRAP; 120 µM): 26.8%

For quick reference, copied from above:
COC1CN([C@H]2CC[C@H]([C@@]3(C)Oc4c(Cl)cc(C(=O)NCc5c(SC)cc(C)[nH]c5=O)c(C)c4O3)CC2)C1
log2 fold change (RNA-seq, item: LPAR1; human, whole blood; dose not given, 24 h; baseline: pretreatment baseline): 1.85

O=C(N/N=C/c1ccc2c(ccc[n+]2Cc2ccccc2)c1)C(=O)N/N=C/c1ccc2c(ccc[n+]2Cc2ccccc2)c1
ΔTm (telomeric G4 DNA hybrid-2; FRET melting; 1 µM, DNA 0.2 µM, added: duplex DNA competitor 10 µM): 8 ± 0.7 °C
